# Measured values gathered from unrelated publications.
# Lines come from different studies, so protocols differ. Several values in a cell are separate wells, animals, samples, runs or records. Numbers after ± are the reported error.
Compound,assay,test system,conditions,concentration
CN[C@H](CC(C)C)C(=O)N[C@H]1C(=O)N[C@@H](CC(N)=O)C(=O)N[C@H]2C(=O)N[C@H]3C(=O)N[C@H](C(=O)N[C@H](C(=O)O)c4cc(O)cc(O)c4-c4cc3ccc4O)[C@H](O)c3ccc(c(Cl)c3)Oc3cc2cc(c3O[C@@H]2O[C@H](CO)[C@@H](O)[C@H](O)[C@H]2O[C@H]2C[C@](C)(N)[C@H](O)[C@H](C)O2)Oc2ccc(cc2Cl)[C@H]1O,E-AB sensor,"male C57BL/6J mice, thalamus","intravenous, 35 mg/kg, 4 h",1.4 ± 0.4 µM
CN(C(=O)n1cnc(-c2cccnc2)c1)[C@H]1CC[C@H](O)CC1,,"Wistar rat, medulla oblongata","oral, 10 mg/kg/day of BIA 10-2474, 4 h, repeated 5 days",35.3 ± 5.3 ng/g
Cc1cc([C@@H](C)Nc2ccccc2C(=O)O)c2nc(N3CCC(F)(F)CC3)c(C#N)c(=O)n2c1,,"NOD-SCID mice, HCC1954 xenograft","intraperitoneal, 60 mg/kg once daily, 8 h",66 ng/mL
NC/C(=C\F)COc1cccc(Cn2c(=S)[nH]c(=O)c3[nH]cnc32)c1,,"C57BL/6J mice, liver","oral, 15 mg/kg single, 1 h",2600 ng/mL
O=C(N[C@H](Cc1c[nH]c2ccccc12)C(=O)Nc1ccncc1)c1ccc(N2CCN(c3ccc(F)cc3F)CC2)cc1F,,"Swiss Webster mouse, female, lung","oral, 50 mg/kg, 2 h, 20% HPβCD vehicle",14.5 µM
COc1ccc2c(=O)n(C)c(-c3ccccc3)nc2c1,,"Sprague-Dawley rat, male, skeletal muscle","oral, 30 mg/kg, 2 h",18.1 ng/g
CCc1c(-c2ccccc2)c(-c2ccccc2)nn1-c1ccccc1-c1cccc(OCC(=O)O)c1,,"female Sprague-Dawley rat, uterus homogenate","oral, 10 mg/kg, 8 h",48.3 ng/mL
O=C(N[C@H](Cc1c[nH]c2ccccc12)C(=O)Nc1ccncc1)c1ccc(-c2cc(C(F)(F)F)ccc2F)cc1F,,"Swiss Webster mouse, female, muscle","oral, 50 mg/kg, 2 h, 20% Kolliphor vehicle",6.37 µM
NCc1cc2c(cc1F)C(=O)N(C1CCC(=O)NC1=O)C2 (stereo not drawn),LC-MS/MS,phosphate buffer without enzyme,"10 µM, 0 h, pH 7.4",10.9 µM and 9.1 µM
